Assay results of several laboratories.
Parts stem from different laboratories: compare values within a part only. Substitutions count along the parent as printed.

Set 1 — method: RNA Bind-n-Seq; molecule type: RNA; matrix: in vitro; tested at: not given; setting: RNA with constant flanks, ends assumed; relative to: input RNA pool; reading: higher = stronger binding
Target: RING finger protein unkempt homolog, zinc fingers 1-6, GST-SBP tag (UNK, Homo sapiens, UniProt Q9C0B0, residues 30-357)
Chain of UniProt Q9C0B0 (30-357, looked up): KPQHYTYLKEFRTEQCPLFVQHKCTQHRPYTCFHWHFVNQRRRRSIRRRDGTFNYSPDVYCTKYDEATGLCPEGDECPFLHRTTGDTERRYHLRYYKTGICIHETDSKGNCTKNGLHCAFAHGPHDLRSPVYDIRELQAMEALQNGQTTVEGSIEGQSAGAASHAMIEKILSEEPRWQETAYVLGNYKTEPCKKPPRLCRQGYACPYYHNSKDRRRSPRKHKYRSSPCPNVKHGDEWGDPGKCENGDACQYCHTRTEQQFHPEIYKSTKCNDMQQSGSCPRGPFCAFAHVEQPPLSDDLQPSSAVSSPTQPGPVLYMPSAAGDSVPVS
Constant ends, left off below: GGGAGUUCUACAGUCCGACGAUC … CAACAGAGGAUUGAGCAUCA
Sequence | bound/input enrichment [ratio]
GGACAUCUCCAGUCAGAAAGUGGAGCAGUUCCGAAGAGGAAAGACCCCUUAACACAUGCCCGUAAUUCAUUGCCUCGAUCAAAAACUGUCCUGAAAAGUGGCUCCGCAGGGCUCUCCGGU | 0.155
CCAGCCCCAGUGCCAUCCAGGAGAAACCCCCCUGGCGGCAAGUCCAGCCUGGUCUUGGGUCCGCUUCUUGUGUUGGAACUCUGUCCUUCUGUCUGUCUGUUUGUUGUCCCAUGCUUGGGA | 0.336
AGAGUGCUGGGAUUAAAGCAGAUAUAAUUUCUACAGUAGAGUUUAAUCAUUCUGGAGAAUUACCCGCCACAGGAGAUAAAGGUGGGAGAGUUGUCAUCUUUCAACAAGAGCAGGAGAACA | 0.59
AGUAAACCUGGCAGCUAUAGAAUACACUAUGUGCAUUUAUAAUAGCUAUUUUAUAUAUUGCCGUAUCAACAUUUUUAAAUUAAAUGUUUUACAUUCACAAGUGGUGGGGAGUCUUGUCAU | 0.822
GUGACUUUGGAAGUCCGUAGUGUCUCAUUGCAGAUAAUUUUUAGCUUAGGGCCUGGUGGCCCGGUCGGUUCUCUCCUUUCCAGUCGGAGACCUCUGCCGCAAACAUGCUCCGCCAGAUCA | 11.6
AAGGUUAAGUACCACAUUCUCCUCUAAACCUUGCCUACGACAUGUUUAAUACUUCAUCUACACCGCAGCCCUUCAGAUAAUCACAACCACUUUGCCCCCAAGUUUUCAGGUUAAGUAGCA | 0.85
UUUGAUGUAAGAAUUGAACGGGACGCACAAGAGAUGGCUGAUAGUUUGGGAGUUAGAAUCUUCCGUGCAGAAAUUAUUUAUCACUUAUUUGAUGCCUUUACAAAAUACAGACAGGACUAC | 1.21
GAUGAAGUGGAGAAGUACAACCGAAAUGGAGUCAAUGCUCUGCAGCUGGAUCCAGCACUAAACCGACUUUUCACAGCCGGUCGAGACUCUAUCAUAAGAAUAUGGAGUGUCAAUCAGCAC | 0.114
ACACCUCUGUUUCUUGCUGCCCGGGAGGGGAGCUAUGAAGCAGCCAAGAUCCUGUCCGACCAUUUUGCCAAUCGAGACAUCACAGACCAUAUGGAUCGUCUUCCCCGGGAUGUGGCUCGG | 0.125
AAUUCACAGAAGCACAAUUUUGCCCUUUGCGAGACAUUGUUGCCUCUAUCUAGUCCUACAAGCCGGGUUUUGCAUACUGUGUUUGCCCCUAGGGUUGUCAGUGCAUCAGAAAUACUUCUA | 0.308

Set 2 — method: DHFR PCA, deep sequencing; matrix: yeast; together with: (+)-ABA 4.8 µM; relative to: wild-type fitted maximum; reading: higher = stronger binding
Target: ABI1, truncated, D143A, DHFR fusion (Arabidopsis thaliana)
Setting: methotrexate growth selection, single substitutions
Starting sequence: PYL1, truncated, DHFR fusion (Arabidopsis thaliana); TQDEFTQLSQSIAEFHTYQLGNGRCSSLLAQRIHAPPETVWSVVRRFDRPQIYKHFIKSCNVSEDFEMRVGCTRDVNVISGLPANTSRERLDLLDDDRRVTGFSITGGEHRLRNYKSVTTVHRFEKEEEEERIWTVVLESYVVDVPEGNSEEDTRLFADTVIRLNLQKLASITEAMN; partner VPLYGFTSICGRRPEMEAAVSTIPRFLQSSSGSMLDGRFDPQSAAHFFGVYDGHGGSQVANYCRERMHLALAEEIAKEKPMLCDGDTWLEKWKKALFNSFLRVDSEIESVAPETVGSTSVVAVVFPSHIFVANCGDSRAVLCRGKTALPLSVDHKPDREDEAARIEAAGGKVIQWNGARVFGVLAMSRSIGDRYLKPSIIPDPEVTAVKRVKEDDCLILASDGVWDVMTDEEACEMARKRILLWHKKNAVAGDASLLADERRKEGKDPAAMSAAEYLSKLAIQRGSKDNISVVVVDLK
Change | relative binding score [%]
T86D | 58.8
L82A | 14
E89Y | -14
E174N | 7.94
V78L | 80.8
A170V | -3.77
F56E | -6.24
R163T | 49.1
S171D | 83.3
L112W | -7.13
K168F | -1.42
V70R | 26
S9G | 70.8
C25R | -4.59
T6V | 77.9

Set 3 — target: CCND2, cyclin fold, Cln2 fusion (human); method: yeast growth competition, sequencing; matrix: yeast; setting: strong parent motif; relative to: not given; reading: higher = stronger binding
Starting sequence: PKN2 docking peptide (human); VSAVRKLDFSDTM
Change | normalised enrichment score
R5N | 0.048
K6Y | 1.87
D8Q | 1.58
S2R | 3
D8Y | 1
V4K | 3.16
S2A | 1.77
A3T | 1.42
F9M | 0.801
F9T | 0.0765
L7D | 0.174
K6N | 1.22

Single results of other studies
Substance | target | assay | system | setting | how to read | measurement | value
PhoQ, residues 284 288 289 292 302 303 SASVAL | PhoP, residues 12 14 15 18 19 LHHVQ (Escherichia coli, UniProt P23836) | Sort-seq, item: YFP reporter | E. coli | PhoQ-PhoP variant library, together with: 10 µM Mg2+ | relative to: high Mg2+ state, higher = stronger signaling | fold induction | 3.96

A few entries again (set 2):
Change | relative binding score [%]
R163T | 49.1
S171D | 83.3
L112W | -7.13
